# Measurements from different studies.
# Protocols differ between the studies behind these lines. Numbers after ± are the reported error.
# Transcriptional regulator ComR: Transcriptional regulator ComR (Streptococcus mutans serotype c, UniProt Q8DWI6)
# P2RY2: P2Y purinoceptor 2 (P2RY2, Homo sapiens, UniProt P41231)
# ESR1: Estrogen receptor (ESR1, Homo sapiens, UniProt P03372)
# P2RY4: P2Y purinoceptor 4 (P2RY4, Homo sapiens, UniProt P51582)
# SSTR2: Somatostatin receptor type 2 (SSTR2, Homo sapiens, UniProt P30874)
# P2Y purinoceptor 1: P2Y purinoceptor 1 (Meleagris gallopavo, UniProt P49652)
Molecule,tested on,test,system,conditions,quantity,result
CC[C@H](C)[C@H](NC(=O)CN)C(=O)N[C@@H](CC(=O)O)C(=O)N[C@@H](Cc1c[nH]c2ccccc12)C(=O)N[C@@H](Cc1c[nH]c2ccccc12)C(=O)N[C@@H](CO)C(=O)N[C@@H](CC(C)C)C(=O)O,Transcriptional regulator ComR,,Streptococcus mutans,,EC50,9400 nM
[BH3-][P+](O)(OP(=O)(O)OC[C@H]1O[C@@H](n2cnc3c(N)ncnc32)[C@H](O)[C@@H]1O)OP(=O)(O)OP(=O)(O)OC[C@H]1O[C@@H](n2ccc(=O)[nH]c2=O)[C@H](O)[C@@H]1O (stereo partly shown),P2RY2,"intracellular calcium rise, agonist",1321N1 expressing human P2Y2,37 °C,EC50,> 100000 nM
CN[C@@](C)(C[18F])C(=O)O,,,SCID mice (A549 xenograft),120 min after injection,tumour uptake,5.6 ± 1.3 %ID/g
CC(C)C[C@H](NC(=O)[C@H](CO)NC(=O)[C@H](Cc1c[nH]c2ccccc12)NC(=O)[C@H](Cc1ccccc1)NC(=O)[C@H](CC(=O)O)NC(=O)[C@H](CC(C)C)NC(=O)CN)C(=O)O,Transcriptional regulator ComR,,Streptococcus mutans,,EC50,5200 nM
O=C(c1cc2cccnc2n1-c1ccc(Cl)c(Cl)c1)N1CC(F)(F)C1,"PDE4B (Homo sapiens, UniProt Q07343)","forskolin-induced cAMP, CRE luciferase reporter",HEK293 expressing PDE4B,with: forskolin 10 µM,EC50,500 nM
O=C1C[C@@H](c2ccc(O)cc2)Oc2cc(O)ccc21,ESR1,"reporter gene, agonist",Hs578T ERα luciferase,"24 h, with: 50 ng/mL doxycycline",EC50,100 nM
O=S(=O)(c1ccc(O)cc1)c1ccc(O)cc1,ESR1,"reporter gene, agonist, luciferase",,,EC50,2200 nM
CC(=O)NCCNC(=O)C1OC(OP(=O)(O)OP(=O)(O)OCC2OC(n3ccc(=O)[nH]c3=O)C(O)C2O)C(O)C(O)C1O (stereo not shown),"P2Y purinoceptor 14 (P2RY14, Homo sapiens, UniProt Q15391)","cAMP accumulation inhibition, agonist",HEK293 expressing P2RY14,"dose as dendrimer conjugate, with: forskolin 30 µM",EC50,496 ± 67 nM
OC(c1ccc(Cl)cc1)(c1ccc(Cl)cc1)C(Cl)(Cl)Cl,ESR1,"reporter gene, agonist, luciferase",,,EC50,1700 nM
CCCN(C/C=C/I)C1CCc2ccc(O)cc2C1 (stereo not shown),"ADRA2A (Homo sapiens, UniProt P08913)","G protein activation, agonist, BRET, refers to: Gαi1","HEK293T, transfected",Emax below 50%,EC50,80 ± 20 nM
meta-bromo-thiolactone,"lasR (Pseudomonas aeruginosa, UniProt P25084)","reporter gene, agonist, luminescence",Escherichia coli plasB-lux,,EC50,4 nM
CC(C)C[C@H](NC(=O)[C@@H](N)[C@@H](C)O)C(=O)N[C@@H](CCC(N)=O)C(=O)N1CCC[C@H]1C(=O)N1CCC[C@H]1C(=O)N[C@@H](C)C(=O)N[C@@H](CO)C(=O)N[C@@H](CO)C(=O)N[C@@H](CCCNC(=N)N)C(=O)N[C@@H](CCCNC(=N)N)C(=O)N[C@@H](CCCNC(=N)N)C(=O)N[C@@H](Cc1c[nH]cn1)C(=O)N[C@@H](Cc1ccccc1)C(=O)N[C@@H](Cc1c[nH]cn1)C(=O)N[C@@H](Cc1c[nH]cn1)C(=O)N[C@@H](C)C(=O)N[C@@H](CC(C)C)C(=O)N1CCC[C@H]1C(=O)N1CCC[C@H]1C(=O)N[C@@H](C)C(=O)N[C@@H](CCCNC(=N)N)C(=O)O,"C3AR1 (Homo sapiens, UniProt Q16581)","β-arrestin recruitment, agonist",,,EC50,10300 nM
CC(C)C[C@H](NC(=O)[C@H](CO)NC(=O)[C@H](Cc1c[nH]c2ccccc12)NC(=O)[C@H](Cc1c[nH]c2ccccc12)NC(=O)[C@H](CC(=O)O)NC(=O)[C@@H](NC(=O)CN)C(C)C)C(=O)O,Transcriptional regulator ComR,,Streptococcus mutans,,EC50,3900 nM
Nc1ncnc2c1ncn2[C@@H]1O[C@H](COP(=O)(O)OP(=O)(O)OP(=O)(O)O)[C@@H](O)[C@H]1O,"PRKACA (Homo sapiens, UniProt P17612)","binding of FAM-SMO peptide, activator, fluorescence polarization",,pH 7,EC50,19200 nM
[BH3-][P+](O)(OP(=O)(O)OC[C@H]1O[C@@H](n2ccc(=O)[nH]c2=O)[C@H](O)[C@@H]1O)OP(=O)(O)OP(=O)(O)OC[C@H]1O[C@@H](n2cnc3c(N)ncnc32)[C@H](O)[C@@H]1O (stereo partly shown),P2RY2,"intracellular calcium rise, agonist",1321N1 expressing human P2Y2,37 °C,EC50,> 100000 nM
autoinducing peptide I,AgrC-I sensor Kin mutant (Staphylococcus aureus),"reporter gene, agonist","Staphylococcus aureus P3-blaZ reporter, Staphylococcus aureus",,EC50,> 10000 nM
CO/N=c1/ccn([C@@H]2O[C@H](COP(=O)(O)OP(=O)(O)OP(=O)(O)Oc3ccccc3)[C@@H](O)[C@H]2O)c(=O)[nH]1,P2RY4,"PLC activation, agonist","1321N1, transfected",,EC50,> 10000 nM
O=C(CCC/C=C\C/C=C\C/C=C\C/C=C\CCCCCN=C=S)NC1CC1,"Cnr1 (Rattus norvegicus, UniProt P20272)","receptor internalization, agonist",HEK293,"30 min, 37 °C",EC50,3.4 nM
CC(C)C[C@H](NC(=O)[C@H](CO)NC(=O)[C@H](Cc1c[nH]c2ccccc12)NC(=O)[C@H](Cc1c[nH]c2ccccc12)NC(=O)[C@H](CC(=O)O)NC(=O)[C@H](CC(C)C)NC(=O)[C@H](C)N)C(=O)O,Transcriptional regulator ComR,,Streptococcus mutans,,EC50,670 nM
[BH3-][P+](O)(OP(=O)(O)OC[C@H]1O[C@@H](n2cnc3c(N)ncnc32)[C@H](O)[C@@H]1O)OP(=O)(O)OP(=O)(O)OC[C@H]1O[C@@H](n2cnc3c(N)ncnc32)[C@H](O)[C@@H]1O (stereo partly shown),P2RY4,"intracellular calcium rise, agonist",1321N1 expressing human P2Y4,37 °C,EC50,> 100000 nM
Clc1ccc2c(N3CCN(CCCN4CCN(c5ccnc6cc(Cl)ccc56)CC4)CC3)ccnc2c1,"CRT (Plasmodium falciparum, UniProt W7FI62)",,,,EC50,200 nM
[BH3-][P+](O)(OP(=O)(O)OC[C@H]1O[C@@H](n2ccc(=O)[nH]c2=O)[C@H](O)[C@@H]1O)OP(=O)(O)OP(=O)(O)OC[C@H]1O[C@@H](n2ccc(=O)[nH]c2=O)[C@H](O)[C@@H]1O (stereo partly shown),P2RY4,"intracellular calcium rise, agonist",1321N1 expressing human P2Y4,37 °C,EC50,> 100000 nM
CCCCC/C=C\C/C=C\C/C=C\C/C=C\CCCC(=O)OC(CO)CO,"CNR2 (Homo sapiens, UniProt P34972, Q63R)","β-arrestin 2 recruitment, agonist, BRET",HEK293 coexpressing GRK5,,EC50,1510 nM
C[C@@]1(O)CC[C@@]2(C)[C@@H](CC[C@@H]3[C@@H]2CC[C@]2(C)[C@@H](c4cc(CO)on4)CC[C@@H]32)C1,"Gamma-aminobutyric acid receptor subunit alpha-2/beta-1/gamma-2 (Homo sapiens, UniProt P18505+P18507+P47869)","GABA current potentiation, positive modulator, two-electrode voltage clamp",Xenopus laevis oocytes,"30 s preincubation, with: GABA EC10",EC50,340 ± 180 nM
CC(C)[C@H](NC(=O)[C@@H]1CSSC[C@H](NC(=O)[C@@H](N)Cc2c[nH]cn2)C(=O)N[C@@H](Cc2ccccc2)C(=O)N[C@H](Cc2c[nH]c3ccccc23)C(=O)N[C@@H](CCCCN)C(=O)N[C@@H]([C@@H](C)O)C(=O)N1)C(=O)O,SSTR2,,,,EC50,5 nM
Clc1ccc(C2CC3CCC2N3)cn1 (racemic),"Acetylcholine receptor; alpha1/beta1/delta/gamma (Homo sapiens, UniProt P02708+P07510+P11230+Q07001)","calcium influx, agonist",TE671 expressing human α1β1γδ AChR,,EC50,260 ± 40 nM
BP(=O)(OC[C@H]1O[C@@H](n2cnc3c(N)ncnc32)[C@H](O)[C@@H]1O)OP(=O)(O)OP(=O)(O)OC[C@H]1O[C@@H](n2cnc3c(N)ncnc32)[C@H](O)[C@@H]1O (stereo partly shown),P2Y purinoceptor 1,"calcium signal, agonist, fluorescence",,,EC50,760 nM
CCCCCCCC(=O)C(O)CC (stereo not shown),"cqsS (Vibrio campbellii, UniProt A7N6S2)","bioluminescence, agonist","Vibrio harveyi, wild type",,EC50,5290 ± 967 nM
BP(=O)(OC[C@H]1O[C@@H](n2ccc(=O)[nH]c2=O)[C@H](O)[C@@H]1O)OP(=O)(O)OP(=O)(O)OP(=O)(O)OC[C@H]1O[C@@H](n2ccc(=O)[nH]c2=O)[C@H](O)[C@@H]1O (stereo partly shown),P2RY2,"intracellular calcium rise, agonist",1321N1 expressing human P2Y2,37 °C,EC50,> 100000 nM
CC(C)C[C@H](NC(=O)[C@H](CCCNC(=N)N)NC(=O)[C@H](CC(C)C)NC(=O)[C@H](CO)NC(=O)[C@@H]1CCCN1C(=O)[C@H](CO)NC(=O)[C@H](CCCNC(=N)N)NC(=O)[C@H](CCC(N)=O)NC(=O)[C@H](C)N)C(=O)N[C@@H](CCCNC(=N)N)C(=O)N[C@@H](Cc1ccccc1)C(N)=O,"Short neuropeptide F receptor (Drosophila melanogaster, UniProt Q9VW75)","calcium mobilization, agonist","HEK-293T transfected, Gα16",37 °C,EC50,2.04 ± 1.48 nM
O=C1C2=C(CCN(Cc3ccccc3)C2)N2CCN=C2N1Cc1ccc(C(F)(F)F)cc1,"CLPP (Homo sapiens, UniProt Q16740)","FITC-casein degradation, activator",,without ClpX,EC50,460 nM
BP(=O)(OC[C@H]1O[C@@H](n2ccc(=O)[nH]c2=O)[C@H](O)[C@@H]1O)OP(=O)(O)OP(=O)(O)OC[C@H]1O[C@@H](n2ccc(=O)[nH]c2=O)[C@H](O)[C@@H]1O (stereo partly shown),P2Y purinoceptor 1,"intracellular Ca2+ elevation, agonist, fura-2",1321N1 cells expressing turkey P2Y1,37 °C,EC50,> 100000 nM
CC(C)[C@H](NC(=O)[C@@H]1CSSC[C@H](NC(=O)[C@H](CC(N)=O)NC(=O)[C@@H](N)Cc2ccc(O)cc2)C(=O)N[C@@H](Cc2c[nH]cn2)C(=O)N[C@H](Cc2c[nH]c3ccccc23)C(=O)N[C@@H](CCCCN)C(=O)N[C@@H]([C@@H](C)O)C(=O)N1)C(=O)O,SSTR2,,,,EC50,200 nM
Clc1ccc(Cl)c(-c2c(Cl)ccc(Cl)c2Cl)c1Cl (racemic),ESR1,"reporter gene, agonist, luciferase",,,EC50,6800 nM

# Excerpt of the above:
Molecule,tested on,test,system,conditions,quantity,result
CC(=O)NCCNC(=O)C1OC(OP(=O)(O)OP(=O)(O)OCC2OC(n3ccc(=O)[nH]c3=O)C(O)C2O)C(O)C(O)C1O (stereo not shown),"P2Y purinoceptor 14 (P2RY14, Homo sapiens, UniProt Q15391)","cAMP accumulation inhibition, agonist",HEK293 expressing P2RY14,"dose as dendrimer conjugate, with: forskolin 30 µM",EC50,496 ± 67 nM
CCCCCCCC(=O)C(O)CC (stereo not shown),"cqsS (Vibrio campbellii, UniProt A7N6S2)","bioluminescence, agonist","Vibrio harveyi, wild type",,EC50,5290 ± 967 nM
CC(C)C[C@H](NC(=O)[C@@H](N)[C@@H](C)O)C(=O)N[C@@H](CCC(N)=O)C(=O)N1CCC[C@H]1C(=O)N1CCC[C@H]1C(=O)N[C@@H](C)C(=O)N[C@@H](CO)C(=O)N[C@@H](CO)C(=O)N[C@@H](CCCNC(=N)N)C(=O)N[C@@H](CCCNC(=N)N)C(=O)N[C@@H](CCCNC(=N)N)C(=O)N[C@@H](Cc1c[nH]cn1)C(=O)N[C@@H](Cc1ccccc1)C(=O)N[C@@H](Cc1c[nH]cn1)C(=O)N[C@@H](Cc1c[nH]cn1)C(=O)N[C@@H](C)C(=O)N[C@@H](CC(C)C)C(=O)N1CCC[C@H]1C(=O)N1CCC[C@H]1C(=O)N[C@@H](C)C(=O)N[C@@H](CCCNC(=N)N)C(=O)O,"C3AR1 (Homo sapiens, UniProt Q16581)","β-arrestin recruitment, agonist",,,EC50,10300 nM
[BH3-][P+](O)(OP(=O)(O)OC[C@H]1O[C@@H](n2ccc(=O)[nH]c2=O)[C@H](O)[C@@H]1O)OP(=O)(O)OP(=O)(O)OC[C@H]1O[C@@H](n2cnc3c(N)ncnc32)[C@H](O)[C@@H]1O (stereo partly shown),P2RY2,"intracellular calcium rise, agonist",1321N1 expressing human P2Y2,37 °C,EC50,> 100000 nM
